Results of several laboratories.
Protocols differ between the studies behind these lines.
Target: 5-hydroxytryptamine receptor 7 (HTR7, Homo sapiens, UniProt P34969)
UniProt P34969, sequence (whole entry, looked up): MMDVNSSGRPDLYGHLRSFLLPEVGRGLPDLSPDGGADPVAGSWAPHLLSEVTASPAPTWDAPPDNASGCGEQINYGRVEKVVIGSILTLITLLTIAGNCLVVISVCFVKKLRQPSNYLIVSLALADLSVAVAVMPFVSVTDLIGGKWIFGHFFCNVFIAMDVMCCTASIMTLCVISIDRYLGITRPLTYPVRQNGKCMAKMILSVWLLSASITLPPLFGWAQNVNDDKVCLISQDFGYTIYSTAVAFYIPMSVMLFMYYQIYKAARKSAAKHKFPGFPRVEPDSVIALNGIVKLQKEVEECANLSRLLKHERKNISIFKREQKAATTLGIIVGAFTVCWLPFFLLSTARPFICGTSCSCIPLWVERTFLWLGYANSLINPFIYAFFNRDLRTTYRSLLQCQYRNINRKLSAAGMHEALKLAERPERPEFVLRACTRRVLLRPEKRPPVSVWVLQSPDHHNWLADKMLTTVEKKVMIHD

| SMILES | effect on | method | concentration | together with | inhibition [%] |
| --- | --- | --- | --- | --- | --- |
| C[Si]1(C[C@H](CN)CC(=O)O)CCCC1 | ligand displacement | radioligand | 70 µM | – | 4 |
| Cc1ccnc(OC[C@H]2CN(CCN3CCc4ccccc43)CCO2)c1 | radioligand binding | – | concentration not given | [3H]LSD | 45.6 |
| CO[C@@H](C)c1c(NC(=O)Nc2cnc(-n3nccn3)c(C(F)(F)F)c2)cnc2sc(C)nc12 | ligand displacement | radioligand | 10 µM | – | 0.9 |
| C[Si](C)(C)C[C@H](CN)CC(=O)O | ligand displacement | radioligand | 250 µM | – | 1 |
| COc1ccc(C(=O)Nc2c(-c3cccs3)nc3ccccn23)cc1 | ligand displacement | radioligand | 10 µM | – | < 50 |
| CCC(=O)N(C)c1ccc(Cl)c(Cl)c1 | ligand displacement | radioligand | 10 µM | – | < 10 |
| CC1Cc2ccccc2N1C(=O)CN1CCN(c2ccccc2)CC1 (stereo not shown) | radioligand binding | – | concentration not given | [3H]LSD | 58 |
| CC(C)Cn1c(SCC(=O)N2CCc3ccccc3C2)nc2cc(Cl)ccc2c1=O | ligand displacement | radioligand | 10 µM | – | 6 |
| O=C1c2sc(-c3ccc(N4CCC(F)C4)nc3F)nc2CCN1c1cccnc1 (stereo not shown) | ligand displacement | radioligand | 1 µM | – | -13 |
| c1ccc(OC[C@H]2CN(CCN3CCc4ccccc43)CCO2)nc1 | radioligand binding | – | concentration not given | [3H]LSD | 28.1 |
